# Measured values collected from several papers.
# Every numbered part comes from another study and shows a few of its results, in no order.

# Series 1
# Target: Ras GTPase-activating protein-binding protein 1, full length (G3BP1, Homo sapiens, UniProt Q13283)
# Chain of UniProt Q13283 (whole entry, looked up): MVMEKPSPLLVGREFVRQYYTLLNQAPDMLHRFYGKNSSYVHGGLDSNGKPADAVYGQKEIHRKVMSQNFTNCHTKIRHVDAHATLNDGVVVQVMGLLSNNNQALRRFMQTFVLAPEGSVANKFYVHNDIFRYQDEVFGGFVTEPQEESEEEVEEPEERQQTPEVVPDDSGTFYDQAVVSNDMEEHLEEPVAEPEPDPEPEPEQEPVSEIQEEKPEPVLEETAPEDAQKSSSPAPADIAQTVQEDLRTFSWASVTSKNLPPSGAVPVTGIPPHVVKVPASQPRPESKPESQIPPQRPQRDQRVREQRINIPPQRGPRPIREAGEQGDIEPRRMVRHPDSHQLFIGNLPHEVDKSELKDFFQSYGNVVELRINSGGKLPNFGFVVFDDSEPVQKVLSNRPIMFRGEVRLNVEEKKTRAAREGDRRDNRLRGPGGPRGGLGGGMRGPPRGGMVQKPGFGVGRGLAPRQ
# Technique: RNA Bind-n-Seq
# Form: RNA
# Medium: in vitro
# Tested at: 200 nM
# Notes: whole 134-nt RNA, ends assumed
# With: 150 mM LiCl
# Relative to: input library
# Reading: higher = stronger binding
# Library: 7-deaza-guanosine replaces G
# Shared flanks, not repeated: GGGAGUUCUACAGUCCGACGAUC … UGGAAUUCUCGGGUGUCAAGG
Sequence,log2 enrichment
AAGUCCUGUGCUACACAUCGUAUGUACCGAAUCGGUUUUUUUGGUUUGGAAAAAGGAAAGUAUUAUGUUACGCCGUUCGGAUCUGCACUU,-1.77
AAGUCCUGUGCUACACAUCGUAUGUACCGAAUCGGAAAAAGGAAAGGUUUUUUUGGAAAGUAUUAUGUUACGCCGUUCGGAUCUGCACUU,-1.76
CCUGUGCUACACAUCGUAUGUACCGAAUCGGAAAAAAAGGGGAAAAAAAGGAAAAAAAGGAAAGUAUUAUGUUACGCCGUUCGGAUCUGC,-0.41
UGGGAGGUGGAUUUUGUUUAUUUUUUUAGCUCAUUUCCAGGGGUGGGAAUUUUAUUUUAAUAUGUGUCAUGAAUAAAGUUGUUUUUGAAA,-0.12
UCCUCAAGUCCUGUGCUACACAUCGUAUGUACCGAAUCGGUGGUUUGGAGGAAAGUAUUAUGUUACGCCGUUCGGAUCUGCACUUCCAGC,-0.0212
GUCCUGUGCUACACAUCGUAUGUACCGAAUCGGCCCCCCGGGCCCCCCGGGCCCCCCGGAAAGUAUUAUGUUACGCCGUUCGGAUCUGCA,-0.952
AGUCCUGUGCUACACAUCGUAUGUACCGAAUCAAAUUUUUUUAAACCCAAAUUUAAAAAAGUAUUAUGUUACGCCGUUCGGAUCUGCACU,-2.48
UUGUGGCUGAGAGACAGUUUGCAAAGGAACAACAUACAGAUGGGACACUAAAGGAAGUUGGAGAAGAUUAUCAAAUCGCAAUCCCAGAUU,0.642

# Series 2
# Target: TAR DNA-binding protein 43, full length, His tag (TARDBP, Homo sapiens, UniProt Q13148, residues 1-414)
# Technique: RNA Bind-n-Seq
# Form: RNA
# Medium: in vitro
# Tested at: 20 nM
# Notes: 6-mer, flanks averaged, single round
# With: 150 mM LiCl
# Relative to: input library
# Reading: higher = stronger binding
Sequence,6-mer enrichment (R)
AUCGAC,0.792
AGUGCC,0.99
CAUACU,0.85
GAGCCU,0.927
CUGAAA,0.824
GACAUC,0.883
GCCACC,1.02
ACCCAG,0.902
ACCACG,0.863
CGACUA,0.792
CCCACU,1.01
UCAAAU,0.89
UCCGAC,0.809
UCCGGG,0.963
GGAUUA,0.908
CUGGAC,0.904
CACAUA,0.89
CAGCGU,0.975
UGAAUU,0.957
GCCCCU,1.22

# Series 3
# Target: Max-binding protein MNT, bHLH-zipper, MAX partner unstated (MNT, Homo sapiens, UniProt Q99583, residues 220-300)
# Technique: protein-binding microarray
# Form: double-stranded DNA, one strand shown
# Medium: in vitro
# Tested at: not given
# Notes: k-mer, scored over probes, only values ≥0.25
# Reading: higher = stronger binding
# Construct (chain): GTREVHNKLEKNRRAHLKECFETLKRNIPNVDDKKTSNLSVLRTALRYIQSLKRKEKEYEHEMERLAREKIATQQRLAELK
Sequence,E-score
GTGTAGCA,0.27
CGTGCCCC,0.371
ACATGGAC,0.3
GAGCGTGC,0.366
GCGTGCTA,0.427
ACGCGGCG,0.361
ACATGCGG,0.446
CCCCTCGC,0.252
GATCATGC,0.285
CGTGTCCA,0.319
AGGGCGTG,0.334
CATGATCG,0.274
ACACGAGC,0.289
CGTGTTTA,0.346
GTGTGAAC,0.283
ACGTTCAC,0.28
CCGTACAC,0.326
ACCATGAG,0.346
TCCATGCA,0.266
GAGGCGCA,0.263
TGCAGCCA,0.285
CACGCACC,0.319
CGACCCCA,0.252
ACCCACGA,0.303
ACGTGGTC,0.441

# Series 4
# Target: Interferon regulatory factor 7, full length, phosphomimetic (IRF7, Homo sapiens, UniProt Q92985, residues 1-503, S471D/S472D/S475D/S476D/S477D/S483D/S484D/S487D)
# Technique: protein-binding microarray
# Form: double-stranded DNA, one strand shown
# Medium: in vitro
# Tested at: 2200 nM top
# Notes: 60-bp whole probe
# With: salmon DNA 0.4 mg/ml
# Relative to: random background probes
# Reading: higher = stronger binding
# Shared flanks, not repeated: GCCTAGCAC … GTCTTGATTCGCTTGACGCTGCTG
# Residues (chain): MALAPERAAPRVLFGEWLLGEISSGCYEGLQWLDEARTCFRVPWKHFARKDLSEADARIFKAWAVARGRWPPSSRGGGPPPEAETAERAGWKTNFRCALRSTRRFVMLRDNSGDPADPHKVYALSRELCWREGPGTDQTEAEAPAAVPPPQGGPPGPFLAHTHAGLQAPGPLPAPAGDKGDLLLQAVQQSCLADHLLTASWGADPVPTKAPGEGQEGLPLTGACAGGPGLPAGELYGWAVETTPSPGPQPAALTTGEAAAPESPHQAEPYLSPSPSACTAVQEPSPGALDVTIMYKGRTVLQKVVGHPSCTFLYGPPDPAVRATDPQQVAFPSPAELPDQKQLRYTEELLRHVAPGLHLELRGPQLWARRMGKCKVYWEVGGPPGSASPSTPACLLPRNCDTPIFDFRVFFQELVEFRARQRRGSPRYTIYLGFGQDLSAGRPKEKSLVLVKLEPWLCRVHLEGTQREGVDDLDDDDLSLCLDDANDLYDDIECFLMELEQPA
Sequence,fitted relative affinity [z-score]
TAACATATTCTCTTCTTGCAGTGCTAG,1.31
TTAGGTCTCGGACTGGGTTTGTGCTAG,-0.404
GACGGACTGGCTATCGGGACGTGCTAG,-0.76
GATGGTATCGGGTATCGGGACGTGCTA,-0.0904
TTAGATTTCAGTATAGATTAGTGCTAG,0.106
TCATGGTTGAACATGAAACTGTGCTAG,0.314
TCACACACCATTCTCGGACTGTGCTAG,1.66
TTAAATTTCGGGTATCGATTAGTGCTA,3.07
GACGGTTTCAACTTTCGGGACGTGCTA,4.73
GGCGGTCTCCTACTGCTGACGTGCTAG,-0.227
ATTGCTTCCTCTTTCTCTGCGTGCTAG,3.04
GACGGTTTCCTTATCCTGAAGTGCTAG,2.69
GACGGACTGGGACTGGGGGCGTGCTAG,-0.205
CAGAGTCTAGCCATTGTGGGTGTGCTA,-0.561
GACGATTTCGGGGCTGGAGACGTGCTA,1.01
TAAGGTTTCGGACTGGGTTAGTGCTAG,2.96
TTAGGACTGGATCTCGGTTAGTGCTAG,0.158
GCCGATATCAGTATCGAGACGTGCTAG,0.614
TTAGATCTCAGTTTCGCTTAGTGCTAG,5.47
